Published values gathered from unrelated publications.
Every numbered part comes from another study and shows a few of its results, in no order. Substitutions count along the parent as printed.

Sample 1
Target: RNA binding protein fox-1 homolog 2, RRM domain, GST-SBP tag (RBFOX2, Homo sapiens, UniProt O43251-10, residues 100-194)
Technique: RNA Bind-n-Seq
Form: RNA
Matrix: in vitro
Concentration: 365 nM
Notes: natural RNA segment, single round, ends assumed
Relative to: no-protein control
Reading: higher = stronger binding
Construct (chain): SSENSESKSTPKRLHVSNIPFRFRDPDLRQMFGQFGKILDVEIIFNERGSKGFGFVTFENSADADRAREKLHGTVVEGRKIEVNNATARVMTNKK
Under “RBNS enrichment (R)”, `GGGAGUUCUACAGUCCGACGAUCCUGUUUUUUAUAUGUAAAAACAAAACAAGAAAAAUAGAGAAUUCUACAUACUAAAUCUCUCUCCUUUUUUAAUUUUAAUAUUUGUUAUCAUUUAUUUAUUGGUGCUACUGUGGAAUUCUCGGGUGCCAA` is recorded as 1.01.
`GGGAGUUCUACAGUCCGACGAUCUUUGUAGGCAAGCCUCACAAGCCGAGGGACAGGACCGGGCUGUGUGAAAGUGGCUUUUGACAGCUUCUCUCUUUUUGGUGUAAUGUUUUACAUGUCCUGUGUCCUGGGGAUGGAAUUCUCGGGUGCCAA`: “RBNS enrichment (R)” 0.318.
Under “RBNS enrichment (R)”, `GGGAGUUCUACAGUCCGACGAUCCAAGAUGCUACUUGUAUCUUUGUCCAUAAAUUGUAAAUAAUUUUAUGCACAUUAUACCAAAUCUUCCUAAAAAGUAAUUUUUCAAAAAAGUAAAAAAGAGAAACUGGAAAUGGAAUUCUCGGGUGCCAA` is recorded as 0.429.
For `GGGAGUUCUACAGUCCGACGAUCUCUGUUCCUCUCCCACGGCAGAUGCCCUCCUCUGUAUGCAAAUCAGCACAGCCUUUAUUGAGCUUUACAACUAACAACCUGAUAGUUGGCAGUUAAUUCACAGUUACAGAUGGAAUUCUCGGGUGCCAA`, “RBNS enrichment (R)” read 0.253.
`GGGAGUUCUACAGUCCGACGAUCUAUCAAGUUCACAACCAGUUUUAUAUUCGAAACGCUUGGAGUCAGCCAGCCAGCCACAUGCAGCUUUGCUGAUAAAUGGAUACCUUUUCACACCAUUUAUGAAAACAAAAUGGAAUUCUCGGGUGCCAA` — result for “RBNS enrichment (R)”: 0.503.
Under “RBNS enrichment (R)”, `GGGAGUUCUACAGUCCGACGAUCUCAGGCUACGGGCUGCCUGAGUGGAAACCUGGGAUGGUGGAGAAUUCCCAAGCCACAGCCCUUUUGUCUCGGGGAACUCCCUUCUUCACAGAGAAGGAGGUGGGGGCUGUUGGAAUUCUCGGGUGCCAA` is recorded as 1.01.
`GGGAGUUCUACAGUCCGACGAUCAUGCUACAAACAUGUCUACCCAGGGUACCACUGAGCUACGUCUUCCUCAUGGGGCAGACGUGAUUGGCUCACAGUUGAAGUCAAAUCACUGCUUGGGCUGCUUGUAGCGGUGGAAUUCUCGGGUGCCAA` — result for “RBNS enrichment (R)”: 0.229.
`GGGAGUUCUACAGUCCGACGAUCUUCGCCAUGUUGGCCAGGCUGGUCUCGAACCCCUGAGCUCAGGUGAUCCACCUGCCUCGGCCUCCCAAAGUGGGAAAUGGGUCAUUUUCAAAGGGGCAACAGUGAUACCAUGGAAUUCUCGGGUGCCAA`: “RBNS enrichment (R)” 0.273.
For `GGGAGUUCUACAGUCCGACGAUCAUUUAGGGGACAAACUCCAUCCAGGUUGACUCUCUCUGGAAUGCGGUAAUAAGAGCUGGCAAGUAAGGCUCAGAGAGAAGCAACCAACUGGAGUUAAUUGCCCAUUUGGGUGGAAUUCUCGGGUGCCAA`, “RBNS enrichment (R)” read 2.72.
`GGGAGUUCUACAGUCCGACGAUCAGAUGUCCUCAGGUCUUUUCCAUCUUCAGUUUCUAUGACUGUGGAAUAAAUGUUCAGAUAGAAACUUACUUUUGGAUGUACUGCUGGCUUUGUCUUUGGGGAUUCAAAUGUGGAAUUCUCGGGUGCCAA`: “RBNS enrichment (R)” 0.533.

Sample 2
Target: CCNE1, cyclin fold, Cln2 fusion (human)
Technique: yeast growth competition, sequencing
Matrix: yeast
Notes: weak parent motif
Relative to: not given
Reading: higher = stronger binding
Starting sequence: EXO1 docking peptide (human); KPECGRVQRAIFQ
Under “normalised enrichment score”, `KPECGRVQRAIFA [Q13A]` is recorded as 0.33.
Under “normalised enrichment score”, `KPECGRAQRAIFQ [V7A]` is recorded as 0.511.
`KPACGRVQRAIFQ [E3A]`: “normalised enrichment score” 0.399.
For `KPEAGRVQRAIFQ [C4A]`, “normalised enrichment score” read 0.157.
For `KPECGRVARAIFQ [Q8A]`, “normalised enrichment score” read 0.386.
`KPECARVQRAIFQ [G5A]`: “normalised enrichment score” -0.201.

Sample 3
Target: Histone acetyltransferase KAT6A, winged helix 1, GST fusion (KAT6A, Homo sapiens, UniProt Q92794, residues 1-85)
Technique: protein binding microarray
Form: double-stranded DNA, one strand shown
Matrix: in vitro
Concentration: not given
Notes: 8-mer, flanks averaged, mean of 2 arrays, mostly near background
Relative to: not given
Reading: higher = stronger binding
Target sequence (chain): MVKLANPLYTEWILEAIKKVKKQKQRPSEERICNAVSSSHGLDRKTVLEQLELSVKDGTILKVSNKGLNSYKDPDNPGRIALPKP
`CGCACCTA` has an E-score of 0.00921.
`ATTAGGTA` gave an E-score of -0.158.
With `ACGACCAC` the E-score was -0.188.
`ACTCCTTA` gave an E-score of -0.0275.
`ACGCAGCA` gave an E-score of 0.0255.
For `AATCGCCG`, the E-score was 0.393.
`CATGGTGA` gave an E-score of -0.0369.
`CCGATGCA` gave an E-score of 0.0509.

Further values, each from its own experiment
The fold induction of `PhoQ, residues 284 288 289 292 302 303 SCKMEA` is reported as 12.8 (PhoP, residues 12 14 15 18 19 LHHSG (Escherichia coli, UniProt P23836); Sort-seq, refers to: YFP reporter; E. coli; PhoQ-PhoP variant library, together with: 10 µM Mg2+; relative to: high Mg2+ state, higher = stronger signaling).

For quick reference, copied from above (sample 1):
`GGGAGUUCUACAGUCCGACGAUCUUUGUAGGCAAGCCUCACAAGCCGAGGGACAGGACCGGGCUGUGUGAAAGUGGCUUUUGACAGCUUCUCUCUUUUUGGUGUAAUGUUUUACAUGUCCUGUGUCCUGGGGAUGGAAUUCUCGGGUGCCAA`: “RBNS enrichment (R)” 0.318.
Under “RBNS enrichment (R)”, `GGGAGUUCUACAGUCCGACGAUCCAAGAUGCUACUUGUAUCUUUGUCCAUAAAUUGUAAAUAAUUUUAUGCACAUUAUACCAAAUCUUCCUAAAAAGUAAUUUUUCAAAAAAGUAAAAAAGAGAAACUGGAAAUGGAAUUCUCGGGUGCCAA` is recorded as 0.429.
For `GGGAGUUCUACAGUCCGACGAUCUCUGUUCCUCUCCCACGGCAGAUGCCCUCCUCUGUAUGCAAAUCAGCACAGCCUUUAUUGAGCUUUACAACUAACAACCUGAUAGUUGGCAGUUAAUUCACAGUUACAGAUGGAAUUCUCGGGUGCCAA`, “RBNS enrichment (R)” read 0.253.
